Assay results collected from several papers.
Each line is one published result; not all experiments were run side by side.

CNC(=O)c1ccc(-c2cnc3ncc(Cc4ccc5ncccc5c4)n3n2)cc1F  adverse event incidence (phase 1 clinical trial, measured: upper abdominal pain; dose escalation cohort; oral, dose not given, grade 3 or 4): 0%
Cc1c(C(=O)O)ccc2c3n(nc12)[C@@H]1[C@H](C3)N(CC2CC2)[C@@]2(C(=O)Nc3cc(Cl)ccc32)[C@H]1c1cccc(Cl)c1F  adverse event incidence (phase Ia trial, measured: Vomiting; cancer patients; oral, dose not given, all patients grade ≥3): 3.7%
NCCONC(=O)[C@@H]1CC[C@@H]2CN1C(=O)N2OS(=O)(=O)O  adverse event incidence (measured: leading to dose reduction; healthy Chinese men; intravenous, 1 g, treatment-emergent): 0%
CC[C@H](C)CCCCC(=O)N[C@@H](CCN)C(=O)N[C@H](C(=O)N[C@@H](CCN)C(=O)N[C@H]1CCNC(=O)[C@H]([C@@H](C)O)NC(=O)[C@H](CCN)NC(=O)[C@H](CCN)NC(=O)[C@H](CC(C)C)NC(=O)[C@@H](Cc2ccccc2)NC(=O)[C@H](CCN)NC1=O)[C@@H](C)O  adverse event incidence (measured: infections and infestations; mild renal insufficiency; intravenous, 0.75 mg/kg): 0%
CC[C@H](C)[C@H](NC(=O)[C@H](Cc1ccccc1)NC(=O)[C@H](CCC(=O)O)NC(=O)[C@H](CCCCNC(=O)COCCOCCNC(=O)COCCOCCNC(=O)CC[C@H](NC(=O)CCCCCCCCCCCCCCCCC(=O)O)C(=O)O)NC(=O)[C@H](C)NC(=O)[C@H](C)NC(=O)[C@H](CCC(N)=O)NC(=O)CNC(=O)[C@H](CCC(=O)O)NC(=O)[C@H](CC(C)C)NC(=O)[C@H](Cc1ccc(O)cc1)NC(=O)[C@H](CO)NC(=O)[C@H](CO)NC(=O)[C@@H](NC(=O)[C@H](CC(=O)O)NC(=O)[C@H](CO)NC(=O)[C@@H](NC(=O)[C@H](Cc1ccccc1)NC(=O)[C@@H](NC(=O)CNC(=O)[C@H](CCC(=O)O)NC(=O)C(C)(C)NC(=O)[C@@H](N)Cc1cnc[nH]1)[C@@H](C)O)[C@@H](C)O)C(C)C)C(=O)N[C@@H](C)C(=O)N[C@@H](Cc1c[nH]c2ccccc12)C(=O)N[C@@H](CC(C)C)C(=O)N[C@H](C(=O)N[C@@H](CCCNC(=N)N)C(=O)NCC(=O)N[C@@H](CCCNC(=N)N)C(=O)NCC(=O)O)C(C)C  adverse event incidence (measured: Fatigue; type 2 diabetes patients; dose not given; baseline: subjects): 0%
FC(F)(F)c1ccc(CNc2ccc(Cc3c[nH]c4ncc(Cl)cc34)cn2)cn1  adverse event incidence (measured: Anaemia; patients with advanced solid tumours; oral, dose not given, grade 1 and 2, possibly related to drug): 19%
O=C1CCc2ccc(OCCCCN3CCN(c4cccc(Cl)c4Cl)CC3)cc2N1  adverse event incidence (measured: Akathisia; patients, CYP2D6 normal metabolizers; dose not given, long-acting oral or depot): 1.8%
CC(=O)O[C@H]1C(=O)[C@@]2(C)[C@H]([C@H](OC(=O)c3ccccc3)[C@]3(O)C[C@H](OC(=O)[C@H](O)[C@@H](NC(=O)c4ccccc4)c4ccccc4)C(C)=C1C3(C)C)[C@]1(OC(C)=O)CO[C@@H]1C[C@@H]2O  adverse event incidence (measured: Rash; patients with advanced solid tumours; intravenous, dose not given, all grades, possibly related to drug): 17%
Cc1ccc(Sc2ccccc2N2CCNCC2)c(C)c1  adverse event incidence (TEAE blood in urine; healthy adult men; oral, 20 mg single dose, 10 days): 0%

A few entries again:
NCCONC(=O)[C@@H]1CC[C@@H]2CN1C(=O)N2OS(=O)(=O)O  adverse event incidence (measured: leading to dose reduction; healthy Chinese men; intravenous, 1 g, treatment-emergent): 0%
